Results of several laboratories.
Lines come from different studies, so protocols differ.
Target: Serine/threonine-protein kinase 17B (STK17B, Homo sapiens, UniProt O94768)

| Structure (SMILES) | assay | test system | setting | scale | quantity | value |
| --- | --- | --- | --- | --- | --- | --- |
| COc1cc(Nc2nc(C)cc(-c3cnn4nc(OC)ccc34)n2)cc(C(F)(F)F)c1 | inhibitor |  | 1 µM, DRAK2 | baseline: control | remaining activity | 81% |
| Cc1ccc(C(=O)Nc2ccc(CN3CCN(C)CC3)c(C(F)(F)F)c2)cc1C#Cc1cnc2cccnn12 | target engagement, NanoBRET | human cells |  |  | Hill slope | 0.938 |
| CN1CC[C@@H](COc2cnc(C#N)cc2-c2ccn3nc(NC(=O)C4CC4)cc3c2)C1 | enzyme activity, inhibitor |  | 1 µM |  | inhibition | 34% |
| CN1CCN(Cc2ccc(-c3ccc(CO[C@H]4CCC[C@@H]4NC(=O)c4cc(-c5cnn(C)c5)cnc4N)cc3)cc2)CC1 | enzyme activity, inhibitor |  | 0.1 µM |  | inhibition | 14% |
| O=C(Cc1ccc(OCc2ccccc2)cc1)NC1(C(=O)O)CCN(C(=O)c2ccc(-c3cccc(Cl)c3)cc2)CC1 | enzyme activity, inhibitor |  | 10 µM |  | activity vs control | 137% |
| C=CC(=O)N1CCc2ccc(-n3c(=O)ccc4cnc5ccc(-c6cnn(C)c6)cc5c43)cc21 | KINOMEscan |  | 1 µM | baseline: DMSO control | remaining binding | 100% |
| CCn1cc(C(=O)O)c(=O)c2c(N)c(F)c(NC3CCCCC3)cc21 | kinase activity |  | 0.1 µM, with: ATP at Km |  | inhibition | -1.2% |
| C=CC(=O)N1Cc2nc(-c3cc(-c4cc(Cl)cnc4Cl)c(F)cc3F)n(-c3ccncn3)c2C1 | cell-free assay |  | 1 µM |  | inhibition | -3.5% |
| Cc1cnc2nc1Nc1cccc(c1)COC/C=C/COCc1cc(ccc1OCCN1CCOCC1)N2 | binding, competition with immobilised ligand |  | 0.1 µM |  | remaining binding | 98% |
| CNC(=O)C1CCN(c2cc(C)c(F)cc2NC(=O)c2ccc(-c3cc(O)ccc3C)c(C)c2)CC1 | binding, competition with immobilised ligand |  | 1 µM |  | remaining binding | 100% |
| Nc1ncc2c(n1)-c1c([nH]c3ccc(C4=CCOCC4)cc13)CCC2 | binding, competition with immobilised ligand |  | 1 µM |  | remaining binding | 100% |
| CC(C)=CC1OC(C)(C)C2C=C3C(=O)C(Cl)=CC(O)C3C3C(O)C4OC4C(=O)C132 (stereo not shown) | cell-free assay, competition with immobilised ligand |  | 10 µM |  | remaining binding | 88% |
| COc1c(Cl)cccc1Nc1c(-c2ccncc2C#C[C@@]2(C)CCCN2C(=O)/C=C/CN(C)C)[nH]c2c1C(=O)NCC2 | cell-free assay, competition with immobilised ligand |  | 3 µM |  | remaining binding | 85% |
| CNC1C[S+]2CC[S+]3CC[S+](C1)[Ru-4]321([N]=C=S)[n]2c3ccc(OC)cc3c3c4c(c5cc(F)c[n+]1c5c32)C(=O)NC4=O (stereo not shown) | KinomeScan |  | 0.1 µM | baseline: untreated | remaining binding | 69% |
| CNC(=O)C[C@H](Cc1ccc(C#N)cc1)NC(=O)c1cc(-c2ccc(CN[C@H](C)c3ccc(C)cc3)o2)ccc1Cl | enzyme activity, inhibitor |  | 1 µM |  | activity vs control | 96% |
| Cc1ccc(-c2c(/C=C(\C#N)C(=O)NC(C)C)n(CCCO)c3ncnc(N)c23)cc1 | cell-free assay, competition with immobilised ligand |  | 1 µM |  | remaining binding | 71% |
| CCN1CCN(Cc2ccc(C(=O)Nc3ccc(C)c(NCc4cnc5[nH]ccc5c4OC)c3)cc2C(F)(F)F)CC1 | binding, competition with immobilised ligand |  | 1 µM |  | remaining binding | 92% |
| COc1cc(Nc2nccc(-c3cnn4nc(OC)ccc34)n2)cc(C(F)(F)F)c1 | binding, competition with immobilised ligand |  | 1 µM |  | remaining binding | 100% |
| C=CC(=O)N1CCCC(n2c(=O)c3ncccc3n(Cc3ccc(Oc4ccccc4)cc3)c2=O)C1 (stereo not shown) | cell-free assay, competition with immobilised ligand |  | 1 µM |  | remaining binding | 99% |

A few entries again:
| Structure (SMILES) | assay | test system | setting | scale | quantity | value |
| --- | --- | --- | --- | --- | --- | --- |
| COc1c(Cl)cccc1Nc1c(-c2ccncc2C#C[C@@]2(C)CCCN2C(=O)/C=C/CN(C)C)[nH]c2c1C(=O)NCC2 | cell-free assay, competition with immobilised ligand |  | 3 µM |  | remaining binding | 85% |
| CNC1C[S+]2CC[S+]3CC[S+](C1)[Ru-4]321([N]=C=S)[n]2c3ccc(OC)cc3c3c4c(c5cc(F)c[n+]1c5c32)C(=O)NC4=O (stereo not shown) | KinomeScan |  | 0.1 µM | baseline: untreated | remaining binding | 69% |
